Assay results pooled from the literature.
Numbered parts are unrelated; each lists some results of a single study. Changes are numbered by the printed parent chain.

Study 1
Target: RNA binding protein fox-1 homolog 2, RRM domain, GST-SBP tag (RBFOX2, Homo sapiens, UniProt O43251-10, residues 100-194)
Technique: RNA Bind-n-Seq
Form: RNA
Sample: in vitro
Concentration: 365 nM
Setting: natural RNA segment, single round, ends assumed
Baseline: no-protein control
Direction: higher = stronger binding
Residues (chain): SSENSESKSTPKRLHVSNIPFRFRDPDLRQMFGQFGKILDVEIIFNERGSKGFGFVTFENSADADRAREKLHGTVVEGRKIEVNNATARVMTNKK
For `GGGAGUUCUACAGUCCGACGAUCCUGGCAGUAAAGAUGGCCCCAGACUGGGUUCCUGCCUGCAGUGUGUGUGGCGGUAGCCCAUGUGCCUUUACCUAAUGUCAGAUUUGCAAGCGUUUCGUCUGUCUUUAUGUUGGAAUUCUCGGGUGCCAA`, “RBNS enrichment (R)” read 2.13.
For `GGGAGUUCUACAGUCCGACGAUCUAUUUAAAACAAAAAACAAAACUACAAUGAAACUUGGGAGUCCUUUUCAUGUAGAGGAAGGUUAUCCUGUAGCAUAAUGUAUGCACACGGUCAUCUAGUACCUGAUUGGAUGGAAUUCUCGGGUGCCAA`, “RBNS enrichment (R)” read 0.787.
`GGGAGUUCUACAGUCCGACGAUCAACCUGGGUCCGGCCUUCCUCAGCCCCUGGCCCCUCCAAGGUACCUAUAAGGGACAAGAGAAGGCCUGCCCAGCAUAGCACAAACAAGGAAAUAAAUAGGUGUUGGCAGGUGGAAUUCUCGGGUGCCAA`: “RBNS enrichment (R)” 0.307.
`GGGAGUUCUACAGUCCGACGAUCGUAUCAAAUCUGUAUAUGUUGUAAUAAAACUUAUGCUAGUUUAUUGGAAGUGUUCAAGAAAUAAAAAUCAACUUGUGUACUGAUAAAAUACUCUAGCCUGGGCCAGAGAAUGGAAUUCUCGGGUGCCAA`: “RBNS enrichment (R)” 0.463.
For `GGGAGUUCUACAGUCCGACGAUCAGGAGCCCAAACACCUUGGUCUUCCUGGGUGGGGGCAUAAUUAAGGGAAGGGAGUGUAUAAGGAAGGAAACCUCAUACCCUCCAUUCCCAUCCCUGGAUAUAUUGCCUUUUGGAAUUCUCGGGUGCCAA`, “RBNS enrichment (R)” read 0.209.
For `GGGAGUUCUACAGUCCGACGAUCAGUUAAGUACUGCUUCCAUUCAUUGUUUACGCUGGAAUUUUUCUCCCCAUGGAAUGUAAGUAAAACUUAAGUGUUUGUCAUCAAUAAAUGGUAAUACUAAAUUUUUUUGUUGGAAUUCUCGGGUGCCAA`, “RBNS enrichment (R)” read 0.88.
For `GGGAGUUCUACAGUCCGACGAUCCCAUCCAGUUGUUUCUGGGCUGUGCGAGAGAUCAUACAUUGAUCUGUGUGUGAUGAGUUGAGGGCUUUCCCACCUGCACGGGCCUUCACGGGCUCCACGCUUUUGCUGUCUGGAAUUCUCGGGUGCCAA`, “RBNS enrichment (R)” read 0.539.
`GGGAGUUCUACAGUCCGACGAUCGGGCUGCAAGAGCAAAGAGGAAUAUCGUCUAAAGAUUUCUCUAUAUAUUUAAAACCCACAACUAAAACACAUCUGCAUAAUAGUGUUUGUUUGUUGAGAGGAUUUCCUGAUGGAAUUCUCGGGUGCCAA`: “RBNS enrichment (R)” 0.976.

Study 2
Target: CCNE2, cyclin fold, Cln2 fusion (human)
Technique: yeast growth competition, sequencing
Sample: yeast
Setting: strong parent motif
Baseline: not given
Direction: higher = stronger binding
Starting sequence: E2F1 docking peptide (human); PPVKRRLDLETDH; partner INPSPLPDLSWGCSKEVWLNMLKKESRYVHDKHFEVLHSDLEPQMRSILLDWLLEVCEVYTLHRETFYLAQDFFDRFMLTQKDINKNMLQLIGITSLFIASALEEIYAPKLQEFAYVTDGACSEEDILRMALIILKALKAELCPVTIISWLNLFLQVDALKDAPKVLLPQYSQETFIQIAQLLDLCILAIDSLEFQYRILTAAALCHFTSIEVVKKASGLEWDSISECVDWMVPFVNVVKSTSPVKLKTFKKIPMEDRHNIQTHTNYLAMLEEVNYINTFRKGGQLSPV
For `PPDKRRLDLETDH [V3D]`, “normalised enrichment score” read -0.362.
Under “normalised enrichment score”, `PPVKHRLDLETDH [R5H]` is recorded as -0.0795.
For `PPVKRRLSLETDH [D8S]`, “normalised enrichment score” read 1.47.
For `PPVKRRLPLETDH [D8P]`, “normalised enrichment score” read 0.578.
`PPVLRRLDLETDH [K4L]` — result for “normalised enrichment score”: 0.263.
Under “normalised enrichment score”, `PPVKERLDLETDH [R5E]` is recorded as 0.426.
`PPVKRRLDLKTDH [E10K]`: “normalised enrichment score” 0.501.
`PPVKRRLDLETDG [H13G]`: “normalised enrichment score” 1.38.
`IPVKRRLDLETDH [P1I]` — result for “normalised enrichment score”: 1.24.
Under “normalised enrichment score”, `PPVKRRSDLETDH [L7S]` is recorded as -0.455.
For `PPVKRRLRLETDH [D8R]`, “normalised enrichment score” read 1.52.
Under “normalised enrichment score”, `PPVKRRLDLETDE [H13E]` is recorded as 0.284.

Study 3
Target: Centromere-binding protein 1, full length, N-terminal tag (CBF1, Saccharomyces cerevisiae, UniProt P17106, residues 1-351)
Chain of UniProt P17106 (whole entry, looked up): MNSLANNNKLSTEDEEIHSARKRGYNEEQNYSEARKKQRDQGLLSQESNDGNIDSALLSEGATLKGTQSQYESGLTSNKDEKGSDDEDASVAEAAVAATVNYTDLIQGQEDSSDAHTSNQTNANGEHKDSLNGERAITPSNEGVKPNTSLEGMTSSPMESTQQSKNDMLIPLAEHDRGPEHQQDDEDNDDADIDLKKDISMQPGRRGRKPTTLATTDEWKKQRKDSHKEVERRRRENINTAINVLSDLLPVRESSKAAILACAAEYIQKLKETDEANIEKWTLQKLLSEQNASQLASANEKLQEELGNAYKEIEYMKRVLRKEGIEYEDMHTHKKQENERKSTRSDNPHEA
Technique: protein-binding microarray
Form: double-stranded DNA, one strand shown
Sample: in vitro
Concentration: 0.8 µM
Setting: whole 60-bp probe, no competitor
Direction: higher = stronger binding
`CTAGGCTACGTGCGTACACGTGTTTTGCGGTCTTTCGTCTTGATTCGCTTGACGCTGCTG` gave a fluorescence intensity of 4350 a.u.
`CTAATCGCTATATTCATGGTGACGGCTCATCTCTTCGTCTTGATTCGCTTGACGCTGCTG` has a fluorescence intensity of 531 a.u.
For `CTATACTAGCGCCATCACGGCTCAGTCGTTATTTTCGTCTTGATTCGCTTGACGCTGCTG`, the fluorescence intensity was 513 a.u.
`GAAACTTATATGAACGCCGTGATGCGTACGTCTTAGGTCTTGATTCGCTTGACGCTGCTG` gave a fluorescence intensity of 543 a.u.
`GAATACACAGCTACATGTGATATATATCGGGCGTAGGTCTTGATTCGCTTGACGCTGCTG` gave a fluorescence intensity of 1680 a.u.
The fluorescence intensity of `GAATTGCTTAGAGTGAACGTGATAGCTTTACGGTAGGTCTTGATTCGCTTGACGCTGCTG` is reported as 1150 a.u.
With `CCTAACTACTATAGAAATGTGCAATAGCTTCGTACAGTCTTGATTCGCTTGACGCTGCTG` the fluorescence intensity was 542 a.u.
For `GAACCGGTTCACCTTTGCGTGGTCTAGTGCATATAGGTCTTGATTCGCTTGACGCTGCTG`, the fluorescence intensity was 522 a.u.
For `GAATTTCATATATTTCTGATGACTTTTTCATTTTAGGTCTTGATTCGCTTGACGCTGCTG`, the fluorescence intensity was 531 a.u.
`GAAAGAACTTGCGATGGTGATGGCAAAAAGCGCTAGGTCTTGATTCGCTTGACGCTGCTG` has a fluorescence intensity of 496 a.u.
`GAAGGTTGCGTATGCCACGTACGAAAAGTTGTTTAGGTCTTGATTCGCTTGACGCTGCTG` has a fluorescence intensity of 530 a.u.
For `GAAATACCTCTGCATCAGACACTGATAACATACTAGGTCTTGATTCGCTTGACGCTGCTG`, the fluorescence intensity was 506 a.u.
With `CTAAATTTTCATTCCGTGGTGCGTGATCTGATGTTCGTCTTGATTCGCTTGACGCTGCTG` the fluorescence intensity was 1420 a.u.
`CTATATATAACAAATCACGTATAAGCATGAGAATTCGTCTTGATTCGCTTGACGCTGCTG` gave a fluorescence intensity of 645 a.u.
For `TGTACGAAGCTATTTCATATGATTATAGTAGTTAGGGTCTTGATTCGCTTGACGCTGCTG`, the fluorescence intensity was 523 a.u.

Mixed results
With `PhoQ, residues 284 288 289 292 302 303 ALVSVA` the fold induction was 0.796 (PhoP, residues 12 14 15 18 19 NIMAP (Escherichia coli, UniProt P23836); Sort-seq, refers to: YFP reporter; E. coli; PhoQ-PhoP variant library, together with: 10 µM Mg2+; baseline: high Mg2+ state, higher = stronger signaling).

A few entries again (study 1):
For `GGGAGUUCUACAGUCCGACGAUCCUGGCAGUAAAGAUGGCCCCAGACUGGGUUCCUGCCUGCAGUGUGUGUGGCGGUAGCCCAUGUGCCUUUACCUAAUGUCAGAUUUGCAAGCGUUUCGUCUGUCUUUAUGUUGGAAUUCUCGGGUGCCAA`, “RBNS enrichment (R)” read 2.13.
For `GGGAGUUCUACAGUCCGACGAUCCCAUCCAGUUGUUUCUGGGCUGUGCGAGAGAUCAUACAUUGAUCUGUGUGUGAUGAGUUGAGGGCUUUCCCACCUGCACGGGCCUUCACGGGCUCCACGCUUUUGCUGUCUGGAAUUCUCGGGUGCCAA`, “RBNS enrichment (R)” read 0.539.
`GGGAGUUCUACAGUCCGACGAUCAACCUGGGUCCGGCCUUCCUCAGCCCCUGGCCCCUCCAAGGUACCUAUAAGGGACAAGAGAAGGCCUGCCCAGCAUAGCACAAACAAGGAAAUAAAUAGGUGUUGGCAGGUGGAAUUCUCGGGUGCCAA`: “RBNS enrichment (R)” 0.307.
`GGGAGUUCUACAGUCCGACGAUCGUAUCAAAUCUGUAUAUGUUGUAAUAAAACUUAUGCUAGUUUAUUGGAAGUGUUCAAGAAAUAAAAAUCAACUUGUGUACUGAUAAAAUACUCUAGCCUGGGCCAGAGAAUGGAAUUCUCGGGUGCCAA`: “RBNS enrichment (R)” 0.463.
For `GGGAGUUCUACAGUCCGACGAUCUAUUUAAAACAAAAAACAAAACUACAAUGAAACUUGGGAGUCCUUUUCAUGUAGAGGAAGGUUAUCCUGUAGCAUAAUGUAUGCACACGGUCAUCUAGUACCUGAUUGGAUGGAAUUCUCGGGUGCCAA`, “RBNS enrichment (R)” read 0.787.
For `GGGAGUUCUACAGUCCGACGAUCAGGAGCCCAAACACCUUGGUCUUCCUGGGUGGGGGCAUAAUUAAGGGAAGGGAGUGUAUAAGGAAGGAAACCUCAUACCCUCCAUUCCCAUCCCUGGAUAUAUUGCCUUUUGGAAUUCUCGGGUGCCAA`, “RBNS enrichment (R)” read 0.209.
